# Measured values gathered from unrelated publications.
# Every numbered part comes from another study and shows a few of its results, in no order. Substitutions count along the parent as printed.

# Set 1
# Target: Max-binding protein MNT, bHLH-zipper, MAX partner unstated (MNT, Homo sapiens, UniProt Q99583, residues 220-300)
# Method: protein-binding microarray
# Molecule type: double-stranded DNA, one strand shown
# Medium: in vitro
# Concentration: not given
# Setting: k-mer, scored over probes, only values ≥0.25
# Direction: higher = stronger binding
# Residues (chain): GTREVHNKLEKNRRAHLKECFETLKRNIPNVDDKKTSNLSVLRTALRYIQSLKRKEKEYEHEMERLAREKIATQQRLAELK
Sequence,E-score
CAGGTGGA,0.292
CGTGATAA,0.295
ACCCACGC,0.396
ACCCACCT,0.295
CATGCGTC,0.409
CATGGCTA,0.273
CCATGCGA,0.361
CGTGCTAC,0.397
GAGCATGA,0.319
CATGCTGC,0.413
CAAACCAC,0.256
ACTGCGTG,0.321
CACGCGAG,0.407
ACCCCACC,0.296
GCGTGATA,0.378
GTCGCCAC,0.292
CATGGTGC,0.36
CGCATGAG,0.316
ACACCATG,0.331

# Set 2
# Target: human cyclin B2
# Observed: peptide binding
# Method: yeast competitive growth sequencing
# Molecule type: peptide
# Organism: Saccharomyces cerevisiae
# Strain: cyclin B2-Cln2 fusion
# Concentration: concentration not given
# Baseline: Cln2 fusion control
# Direction: direction not given
Molecule,binding enrichment score
APPRKALFTYPKG,0.585
REPARRLFLFGEE,0.186
EDLLKELQKQLEE,-0.697

# Set 3
# Target: RNA binding protein fox-1 homolog 2, RRM domain, GST-SBP tag (RBFOX2, Homo sapiens, UniProt O43251-10, residues 100-194)
# Method: RNA Bind-n-Seq
# Molecule type: RNA
# Medium: in vitro
# Concentration: 365 nM
# Setting: natural RNA segment, single round, ends assumed
# Baseline: no-protein control
# Direction: higher = stronger binding
# All sequences stand within: GGGAGUUCUACAGUCCGACGAUC … UGGAAUUCUCGGGUGCCAA
# Residues (chain): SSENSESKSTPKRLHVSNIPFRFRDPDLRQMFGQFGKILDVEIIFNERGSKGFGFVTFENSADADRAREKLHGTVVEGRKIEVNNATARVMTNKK
Sequence,RBNS enrichment (R)
AAGAGUAUUUAAAGAAAUAAUUUGGAUUGCUUUUGUUUUUUGUUUCCUUUUUUUUAACCAUCUGAUACUAAGAAGAUGAAUUUGCACAGAUUUCUCUGCAUAAUUUCUCA,1.01
UUUCUAGUUCAAGCCCACAGCCAGCAACAAGCAACAAAGUGUCUUAGAAUAGGACUGGUUUUGUUUACCUCACCUAUGAGGUUGGCAGUAGCUCCCAACCCAUUUCACAA,0.252
ACCGUGCAGGUUGUGGCCGGUUUUCUCCGCAGGUUGAACAUGGAAAUAAAAGCAAACUUGUAUGAAAAACCGGUCUUUCUCCUCUCUUUGAAUGUAGAUAGAGACCUUGA,1.17
UUAGCAAUUGUUUGUUAAUGUCCUUGGCAAACGUGUACCUGCUUUCCUUCAUUGUUCUCUUCAGGGGCUUUCUUCCACUUUCCUCUUAUGAAACGAAUGUGUUUUUGACU,0.39
CUCCGUAGGCUUGGGGAUGGUUCCCUCAAAGUGAGCCACUAUUAGAUUUGCCCAUCAGGGGAAAAGAAAUGGGGUUAUAUCCAUUAGGAAAAUCCCAUUUUAUAGAUAGA,0.33
UACAGAUCUUUCUAUAAAAAAUAAACAUCUUUUGAUUGCUUGGAUUUAGGAAUUCAAUUUUUGUUUCAGUGACCAAUGUCAAGUUGCAGGCUUUGUGUGUUGCAUAUUUA,1.16
AGUUUGUAAAUAAGGGUGUCUGUGCAGAUUUCCCCACAUUUAUUUGUAUAAAAAUUUCUCAUCUUUUCAGACUUUUUUGUAAACCGCCCCCGAGUUGUGAAAGCUGCGAC,2.03
CAGGCCAGGGCAGAUGGCCAAGGGUAGAAAGGUGUGCUAACGUGGCCAGGGAUGGCCGGAGAGCUUCGGGUUCCACUAUGUUCACAUGGAUGCCCCAGCGCCUGGGGUGA,0.691
CGACUUUGCACUUAAAAAGGGAUAUUGUAAAUGAAAGGCUGCAGUGCCAGUUUUAAGAAAGAAUUUCUGUGAAGUGUGAGGACUCUGGAGUCUAGCUCACAUAAAGAGAG,0.546
ACUACUCUCAUUCAGGAUUCUUGCUCCCAUGCUGCUGUCCCUUCAGGCUCACAUGCACAGGAAUGCUACAUGAUGGCCAGCUGCUUCCCUCCUUGGUUAUCAUCCACUGC,0.659
UCAUUGACUUCGGGCUGGACCGUUGCCCUCUGAGCAGAGAACAGACCCAUUUCUGGGAGCUGCCCGAGAUCACUGGAGAAGGCAGCCAGCAGCAGCUGCACUGGAACAGU,0.394
GUAGAGCUGUGAGAGCAGUGGGGGCUGCCCUCUGUAGAGCUGUGAGAGCAGUGGGGGCUGCCCUCUGUAGAGCUGUGAGGGAGAGGCUUUCUGAUCAGAUGAACAUCUGU,0.516

# Set 4
# Target: Centromere-binding protein 1, full length, N-terminal tag (CBF1, Saccharomyces cerevisiae, UniProt P17106, residues 1-351)
# Sequence of UniProt P17106 (whole entry, looked up): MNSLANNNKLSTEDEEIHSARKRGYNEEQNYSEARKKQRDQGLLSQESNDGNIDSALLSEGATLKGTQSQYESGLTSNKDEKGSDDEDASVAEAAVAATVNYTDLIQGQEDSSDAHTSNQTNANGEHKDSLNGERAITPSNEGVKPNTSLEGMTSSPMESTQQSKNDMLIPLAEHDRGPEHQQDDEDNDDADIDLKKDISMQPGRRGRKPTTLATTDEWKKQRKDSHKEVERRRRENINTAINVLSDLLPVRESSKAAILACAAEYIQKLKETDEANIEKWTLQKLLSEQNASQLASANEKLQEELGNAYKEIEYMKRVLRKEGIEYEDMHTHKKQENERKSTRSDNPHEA
# Method: protein-binding microarray
# Molecule type: double-stranded DNA, one strand shown
# Medium: in vitro
# Concentration: 0.8 µM
# Setting: whole 60-bp probe, no competitor
# Direction: higher = stronger binding
# All sequences stand within: … GTCTTGATTCGCTTGACGCTGCTG
Sequence,fluorescence intensity
CCTAACTACTATATTCACGTTTAATAGCTTCGTACA,560 a.u.
CTATTTCTACTCAAACACGTTTGAAAAACGGCATTC,548 a.u.
GAATTATATTAGAGTAACTTAATCACGTGTTAATAG,17000 a.u.
GAAAGGACCACCCCACGTGCCAGAATTGTTTCATAG,4780 a.u.
CTAGTTCCTTGGAACCACATGATTTACTCAACATTC,998 a.u.
GAAGAATACTGACATCAGCTGATTTCTCATAGATAG,2110 a.u.
GAAGTGGCCTCCGGTCACCTCGAGTTAGAACTTTAG,479 a.u.
CTATTTCGCATTGTGCACGGAAGGCTTCACCTTTTC,499 a.u.
CTAATCTTTATTGATAACGTGGACGTGTTATTATTC,919 a.u.
GAAGTATCGTGATATATCGTGATTTACAACTGGTAG,884 a.u.
CTATTAAAGAACGATCAGCTGAAGCTGTGATAATTC,531 a.u.
CTATACTGTATTCGTGGTGTCCCTTTTCAGAAATTC,595 a.u.
CTAATGGCTTTGCATCTGATGCTGGCTCTACCGTTC,497 a.u.
CTATGTGAAAACGGTGATGATAGTAAAAAAATATTC,569 a.u.
GAATACGTGGTAATGAACGTGTATACATATATTTAG,573 a.u.
GAATATTGAACCAATCACGACGCTTTTTCTCTTTAG,594 a.u.
GAAGACGTAGTGTGTGGTGTGGTATAGTACGCGTAG,529 a.u.
GAACGCTGGGTAATGGACGTGTCACTCTACTTCTAG,535 a.u.
GAATTTCTATTCGATCACGAGCTCTACTGCTGGTAG,2690 a.u.
GAATGCTATTGATATCACGACATGTGCGCTTCTTAG,1180 a.u.
TGTACGAAGCTATAACTGATCACTATAGTAGTTAGG,515 a.u.
GAAATCCTTTAACGCCTCATGATTATTGAATAGTAG,594 a.u.
GAAAGTTAAGGTATAGGCGTGATGCCATGGGAGTAG,616 a.u.
GAATGAGCGAACTCAGCTGTCACCGTTTCGGGATAG,493 a.u.
CTATTCAACATTGCGGGCGTGATTATAGGTCAGTTC,610 a.u.

# Set 5
# Target: ABI1, truncated, D143A, DHFR fusion (Arabidopsis thaliana)
# Method: DHFR PCA, deep sequencing
# Medium: yeast
# Setting: methotrexate growth selection, single substitutions
# Together with: (+)-ABA 710 µM
# Baseline: wild-type fitted maximum
# Direction: higher = stronger binding
# Starting sequence: PYL1, truncated, DHFR fusion (Arabidopsis thaliana); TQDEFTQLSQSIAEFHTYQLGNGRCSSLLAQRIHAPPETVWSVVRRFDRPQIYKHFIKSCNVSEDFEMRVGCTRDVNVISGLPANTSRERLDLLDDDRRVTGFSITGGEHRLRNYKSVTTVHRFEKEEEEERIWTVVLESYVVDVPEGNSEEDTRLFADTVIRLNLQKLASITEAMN
Variant,relative binding score [%]
N85W,98.3
T1I,95.6
Q167F,86.9
T119C,106
R88G,80.9
Q2F,104
D97V,113
E4N,101
K168A,96
A175K,101
E129F,107
D153L,4.24
P36R,94.9
E4L,101
L169Q,-2.67
R88K,106
E128Q,111
E38M,75.4
P37A,95
R74F,2.64
R99K,115

# Set 6
# Target: Histone acetyltransferase KAT6A, winged helix 2, GST fusion (KAT6A, Homo sapiens, UniProt Q92794, residues 85-181)
# Method: protein binding microarray
# Molecule type: double-stranded DNA, one strand shown
# Medium: in vitro
# Concentration: not given
# Setting: 8-mer, flanks averaged, mean of 2 arrays, mostly near background
# Baseline: not given
# Direction: higher = stronger binding
# Target sequence (chain): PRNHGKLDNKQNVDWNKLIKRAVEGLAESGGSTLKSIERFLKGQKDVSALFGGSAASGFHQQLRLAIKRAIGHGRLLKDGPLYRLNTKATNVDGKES
Sequence,E-score
CACGGTGG,-0.0607
ATACTTGA,-0.151
ATCGATCA,-0.0707
CAACCTTG,0.0461
GCTGTACC,0.0848
AAACTTAG,-0.163
GGCTCCCC,0.0177
ACAGCCTC,-0.18
AGTGCGGG,0.2
ACTTGTTA,-0.105
TGAAGAAA,0.107
ACTGCCTG,0.152
ATCACCAA,-0.0539
GCACACCA,-0.0441
AGCTCCTC,-0.0546
CTGGGGCA,0.141
ACTGCCAG,0.0747
CGTATTTA,0.035
CGCATGGA,0.0614
TACGGATA,0.0815
AAGCTCCC,0.0278
ATCGACAT,0.0828
ACTATTAC,-0.0855
AGATATAT,-0.0381
CATCTAAA,0.114

# Mixed results
Molecule,target,assay,system,setting,scale,measurement,result
"PhoQ, residues 284 288 289 292 302 303 SSLVEF","PhoP, residues 12 14 15 18 19 HEGLL (Escherichia coli, UniProt P23836)","Sort-seq, item: YFP reporter",E. coli,"PhoQ-PhoP variant library, together with: 10 µM Mg2+","baseline: high Mg2+ state, higher = stronger signaling",fold induction,0.726

# Excerpt of the above (set 6):
Sequence,E-score
CTGGGGCA,0.141
ATCGATCA,-0.0707
ACTATTAC,-0.0855
CAACCTTG,0.0461
GCACACCA,-0.0441
CACGGTGG,-0.0607
ACTGCCTG,0.152
CGCATGGA,0.0614
ACTTGTTA,-0.105
GGCTCCCC,0.0177
